Measured values collected from several papers.
Every numbered part comes from another study and shows a few of its results, in no order. Positions count from the first letter of the parent shown.

Study 1 — target: CCNB2, cyclin fold, Cln2 fusion (human); technique: yeast growth competition, sequencing; medium: yeast; setting: weak parent motif; reference: not given; reading: higher = stronger binding
Starting sequence: MASTL docking peptide (human); PMIAKNLMCELDE; partner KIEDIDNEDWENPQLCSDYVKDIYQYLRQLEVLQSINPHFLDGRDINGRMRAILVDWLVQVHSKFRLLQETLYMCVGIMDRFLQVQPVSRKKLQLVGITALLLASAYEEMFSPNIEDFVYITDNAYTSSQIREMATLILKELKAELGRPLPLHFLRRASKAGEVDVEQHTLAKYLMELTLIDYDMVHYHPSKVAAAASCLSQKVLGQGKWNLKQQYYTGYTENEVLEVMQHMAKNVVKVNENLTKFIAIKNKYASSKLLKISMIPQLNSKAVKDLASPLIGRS
| Change | normalised enrichment score |
| --- | --- |
| M2I | 1.12 |
| M2K | 0.95 |
| K5G | -0.41 |
| M2E | 0.952 |
| D12P | 0.317 |
| L7K | 0.46 |
| L7I | 0.374 |
| A4K | 1.09 |
| D12E | 0.75 |
| L11M | -0.325 |
| N6M | 0.362 |
| C9T | 0.847 |
| L11R | -0.134 |
| M8L | 1.11 |
| N6D | 0.196 |

Study 2 — technique: protein binding microarray; molecule type: double-stranded DNA, one strand shown; medium: in vitro; concentration: not given; reference: not given; reading: higher = stronger binding
Target: Histone acetyltransferase KAT6A, winged helix 1, GST fusion (KAT6A, Homo sapiens, UniProt Q92794, residues 1-85)
Setting: 8-mer, flanks averaged, mean of 2 arrays, mostly near background
Construct (chain): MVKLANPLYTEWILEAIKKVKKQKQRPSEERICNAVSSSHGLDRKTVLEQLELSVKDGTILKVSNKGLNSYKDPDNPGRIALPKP
| Sequence | E-score |
| --- | --- |
| CCGTCTCC | 0.29 |
| ATGTTAAA | -0.138 |
| CAGAGGTA | -0.167 |
| CGTGGGGA | -0.0877 |
| CCTCCAGA | -0.0944 |
| AATGCCAG | -0.0921 |
| GCTCTGCC | -0.065 |
| AGCACAAC | -0.182 |
| TACGCTAA | 0.259 |
| AGACCATG | -0.14 |
| AAGTCACG | 0.0319 |
| GGTAATCA | 0.128 |
| GGAGATGA | -0.103 |
| AGGCTTCC | -0.0425 |
| AAGGTGAA | -0.0541 |
| AAGCGACC | 0.111 |
| GGCGAAGA | 0.0537 |
| CTGCGAAG | -0.139 |
| ACAGGACG | 0.0831 |
| AATCGGCT | 0.135 |
| CCGGTCAA | 0.245 |
| CAAAATGC | -0.0809 |
| CGCGCGCA | 0.458 |

Study 3 — technique: RNAcompete; molecule type: RNA; medium: in vitro; concentration: 20 nM; setting: 7-mer, probes averaged, single round; reference: mean of 7-mers; reading: higher = stronger binding
Target: PABPC1L2, full length, GST fusion (mouse, UniProt A0ABA7IW68)
Construct (chain): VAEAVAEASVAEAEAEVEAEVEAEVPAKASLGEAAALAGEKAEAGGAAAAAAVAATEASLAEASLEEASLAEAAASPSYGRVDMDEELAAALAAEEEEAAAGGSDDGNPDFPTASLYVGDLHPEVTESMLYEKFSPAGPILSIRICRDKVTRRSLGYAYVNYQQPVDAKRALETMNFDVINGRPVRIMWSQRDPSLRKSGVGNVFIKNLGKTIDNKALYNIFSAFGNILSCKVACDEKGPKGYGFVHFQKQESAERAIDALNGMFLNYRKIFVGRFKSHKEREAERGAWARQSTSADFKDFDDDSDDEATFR
| Sequence | 7-mer Z-score |
| --- | --- |
| AUGGUCA | 0.037 |
| CUCCCAA | -0.0699 |
| AUCAGAU | 0.0442 |
| CUCUAUA | -0.0808 |
| UAGUUAU | -0.195 |
| CUCCACG | -0.215 |
| AAUCGAG | 0.267 |
| CUGUAUA | -0.177 |
| UAAGUAG | -0.0971 |
| UUGUACA | -0.206 |
| UGCCAAU | -0.213 |
| CAACUAU | -0.0192 |
| ACUAGGG | 0.331 |
| GAAGGUA | 0.046 |
| AUGAUGA | -0.0645 |
| UUGUCCG | -0.396 |
| CCCGCGU | -0.311 |
| UCAGUCU | -0.293 |
| UGGACAC | -0.0736 |
| AGCGUAU | -0.164 |
| UUGAUAG | -0.18 |
| CAUCUGA | -0.159 |

Single results of other studies
| Molecule | target | test | test system | conditions | scale | quantity | result |
| --- | --- | --- | --- | --- | --- | --- | --- |
| PhoQ, residues 284 288 289 292 302 303 SSYNSA | PhoP, residues 12 14 15 18 19 SYFRT (Escherichia coli, UniProt P23836) | Sort-seq, item: YFP reporter | E. coli | PhoQ-PhoP variant library, added: 10 µM Mg2+ | reference: high Mg2+ state, higher = stronger signaling | fold induction | 1.09 |

Repeated from above (study 2):
| Sequence | E-score |
| --- | --- |
| CCTCCAGA | -0.0944 |
| TACGCTAA | 0.259 |
| CGTGGGGA | -0.0877 |
| AGACCATG | -0.14 |
| GGTAATCA | 0.128 |
| AGGCTTCC | -0.0425 |
| CTGCGAAG | -0.139 |
| ACAGGACG | 0.0831 |
